Experimental data of several laboratories.
Compare with care: the assays were run in different laboratories. Values joined by “and” are separate records of one study, mostly repeats; a detail may differ. ± gives the spread as reported.

Structure (SMILES) = COc1ccc(C(=O)Nc2cc(OC(F)(F)F)ccc2-n2cncn2)cc1OC; target = other mGlu receptor subtypes; test = agonist, GIRK thallium flux; setting = 10 µM; quantity = agonist effect; result = no effect
Structure (SMILES) = O=C(O)[C@H](O)[C@@H](O)[C@H](O)[C@H](O)CO[C@H]1O[C@H](CO)[C@H](O)[C@H](O)[C@H]1O; target = SAR11_1346; test = differential scanning fluorimetry; test system = Candidatus Pelagibacter sp.; setting = in-house screen; quantity = thermal shift; result = 3.01 °C
Structure (SMILES) = Cc1ccc(C(=O)Nc2ccc3ccccc3c2)o1; target = rat Kv2.1; test = ion current, whole-cell patch-clamp; setting = 10 µM; quantity = inhibition; result = 20%
Structure (SMILES) = CCN(CC)CC1CCCCN1CC(=O)N1c2ccccc2C(=O)Nc2cccnc21 (stereo not drawn); target = muscarinic M2 receptor, bullfrog; test = IK(ACh) current, antagonist, whole-cell patch clamp; test system = bullfrog atrial myocytes; setting = holding potential -35 mV, together with: acetylcholine 1 µM; quantity = IC50; result = 380 nM
Structure (SMILES) = CCCCC1=NC2(CCCC2)C(=O)N1Cc1ccc(-c2ccccc2S(=O)(=O)Nc2noc(C)c2C)c(COCC)c1; target = P-gp; test = substrate, SIVA model; test system = Caco-2; quantity = Km; result = 8.03 µM
Structure (SMILES) = CCCCCCCC(=O)OC[C@H](COP(=O)(O)O[C@@H]1[C@H](O)[C@H](O)[C@@H](OP(=O)(O)O)[C@H](OP(=O)(O)O)[C@H]1O)OC(=O)CCCCCCC; target = Kv7.2/Kv7.3(EEE) mutant channel; test = activator; setting = model 4, K3 fixed; quantity = maximal open probability; result = 0.516
Structure (SMILES) = C#CCOc1cc(C(=O)Nc2cc(OCCN)c3ccccc3n2)nc(C(=O)Nc2cc(OCCN)c3ccccc3n2)c1; target = c-kit1 G-quadruplex DNA; test = FRET melting; setting = 1 µM, pH 7.4, together with: 60 mM potassium; quantity = ΔTm; result = 14.6 ± 0.5 K
Structure (SMILES) = c1coc(-c2n[nH]cc2-c2ccnc3ccccc23)c1; target = MCK1 (Candida albicans); test = kinase binding, MIB/MS competition; test system = Candida albicans lysate; setting = 10 µM; how to read = relative to: DMSO; quantity = log2 fold change; result = -0.02
Structure (SMILES) = COc1cc2c3c(n(CCCNCCO)c(=O)c2cc1OC)-c1nc2c(cc1C3=O)OCO2; target = MYC G-quadruplex DNA; test = FRET melting; setting = 2.0 µM, pH 7.0, together with: K+ 10 mM; quantity = ΔTm; result = 26.7 ± 1.2 °C
Structure (SMILES) = C[C@]12CC[C@@H]3c4ccc(O)cc4CC[C@H]3[C@@H]1CC[C@@H]2O; target = estrogen receptor 1 ligand-binding domain, Xenopus laevis; test = reporter gene, agonist, GAL4 one-hybrid reporter; test system = HepG2; setting = charcoal-stripped FBS; quantity = EC50; result = 0.9 ± 0.1 nM
Structure (SMILES) = Oc1ccccc1-c1n[nH]cc1-c1ccnc2ccccc12; target = MCK1 (Candida albicans); test = kinase binding, MIB/MS competition; test system = Candida albicans lysate; setting = 10 µM; how to read = relative to: DMSO; quantity = log2 fold change; result = 0.06
Structure (SMILES) = C=C(CC(=O)O)C(=O)O; target = SAR11_1346; test = differential scanning fluorimetry; test system = Candidatus Pelagibacter sp.; setting = in-house screen; quantity = thermal shift; result = 3.53 °C
Structure (SMILES) = CC(C)C[C@H](NC(=O)[C@H](Cc1ccc(O)cc1)NC(=O)[C@H](CCC(N)=O)NC(=O)[C@@H](N)CC(=O)O)C(=O)N[C@@H](C)C(=O)N[C@H](C(=O)N1CCC[C@H]1C(=O)N[C@@H](CCC(N)=O)C(=O)N[C@@H](Cc1c[nH]cn1)C(=O)N1CCC[C@H]1C(=O)N[C@@H](Cc1ccc(O)cc1)C(=O)N[C@@H](CCC(N)=O)C(=O)N[C@@H](Cc1c[nH]c2ccccc12)C(=O)N[C@@H](C)C(=O)N[C@@H](CCCCN)C(=O)O)C(C)C; target = human calcineurin A; test = NMR mapping; setting = concentration not given; quantity = distance to active site; result = ~20 Å
Structure (SMILES) = COc1cc2c3c(n(CCCn4ccnc4)c(=O)c2cc1OC)-c1nc2c(cc1C3=O)OCO2; target = MYC G-quadruplex DNA; test = FRET melting; setting = 2.0 µM, pH 7.0, together with: K+ 10 mM; quantity = ΔTm; result = 12.1 ± 1.7 °C
Structure (SMILES) = C[n+]1cccc2cc(C=NNC(=O)c3ccc4ccc5ccc(C(=O)NN=Cc6ccc7c(ccc[n+]7C)c6)nc5c4n3)ccc21.[I-].[I-]; target = hp2 hairpin duplex DNA; test = FRET melting; setting = 1 µM; quantity = ΔTm; result = 1.7 ± 0.6 °C
Structure (SMILES) = NCCCOc1cc(NC(=O)c2cc(OCCN)cc(C(=O)Nc3cc(OCCCN)c4ccccc4n3)n2)nc2ccccc12; target = c-kit1 G-quadruplex DNA; test = FRET melting; setting = 1 µM, pH 7.4, together with: 60 mM potassium; quantity = ΔTm; result = 22.2 ± 0.4 K
Structure (SMILES) = CC(=O)NCCCC[C@H](NC(=O)CNC(=O)[C@H](CCCNC(=N)N)NC(C)=O)C(=O)Nc1ccc2c(C)cc(=O)oc2c1; target = human Y225F/Y782F mutant enzyme; test = substrate, fluorogenic; quantity = kcat; result = 0.048 ± 0.004 s⁻¹
Structure (SMILES) = CC(=O)N[C@H](C(=O)N1C[C@H](O)C[C@H]1C(=O)NCc1ccc(-c2scnc2C)cc1)C(C)(C)SCCCCCCNC(=O)C[C@@H]1N=C(c2ccc(Cl)cc2)c2c(sc(C)c2C)-n2c(C)nnc21; target = DNA-PKcs (human); test = TMT proteomics; test system = HeLa; setting = 3 µM, 24 h; how to read = relative to: DMSO; quantity = relative protein abundance; result = 0.929
Structure (SMILES) = O=C(O)CCCOc1cccc(CNC(=O)C#Cc2cn(Cc3ccc(C(=O)O)cc3)c(=O)[nH]c2=O)c1; target = MMP-12; test = inhibitor, FRET; setting = 10 µM; quantity = remaining MMP-12 activity; result = 113 ± 4%
Structure (SMILES) = CC(Nc1nc(N2CCCC2)nc2ccccc12)c1ccccc1 (stereo not drawn); target = importin α/β1; test = cMyc nuclear import, high content imaging; test system = HeLa Kyoto reporter; setting = 0.0158 µM, 2 h; quantity = cells with nuclear reporter; result = 80.7%
Structure (SMILES) = NCCOc1cc(NC(=O)c2cccc(C(=O)Nc3cc(OCCN)c4ccccc4n3)n2)nc2ccccc12; target = c-kit1 G-quadruplex DNA; test = FRET melting; setting = 1 µM, pH 7.4, together with: 60 mM potassium; quantity = ΔTm; result = 25.6 ± 0.7 K
Structure (SMILES) = COc1cc(C)c2cc(C3(NS(=O)(=O)c4ccccc4-c4ccccc4)COC3)oc2c1; target = human estrogen receptor alpha; test = reporter gene; test system = MCF7-MVLN; quantity = IC50; result = 18300 nM
Structure (SMILES) = NCCCOc1cc(NC(=O)c2cc(Cl)cc(C(=O)Nc3cc(OCCCN)c4ccccc4n3)n2)nc2ccccc12; target = c-kit1 G-quadruplex DNA; test = FRET melting; setting = 1 µM, pH 7.4, together with: 60 mM potassium; quantity = ΔTm; result = 29.1 ± 0.7 K
Structure (SMILES) = O=C(O)[C@@H](O)[C@@H](O)[C@H](O)[C@@H](O)C(=O)O; target = SAR11_1346; test = differential scanning fluorimetry; test system = Candidatus Pelagibacter sp.; setting = in-house screen; quantity = thermal shift; result = 2.78 °C
Structure (SMILES) = N[C@@H]1c2ccccc2OC12CCN(c1cnc3c(N4CCCc5ncccc54)n[nH]c3n1)CC2; target = ERK, human; test system = patients with advanced solid tumours, monocytes, GM-CSF stimulated, blood; setting = ≥40 mg, cycle 1 day 15, together with: GM-CSF; how to read = relative to: baseline (cycle 1 day 1); quantity = pERK inhibition; result = 72 to 95%
Structure (SMILES) = COc1cc2c3c(n(CCCN4CCOCC4)c(=O)c2cc1OC)-c1cc2c(cc1C3=O)OCO2; target = MYC G-quadruplex DNA; test = FRET melting; setting = 2.0 µM, pH 7.0, together with: K+ 10 mM; quantity = ΔTm; result = 11.7 ± 1 °C
Structure (SMILES) = NCCOc1cc(NC(=O)c2cc(OCc3c[nH]nn3)cc(C(=O)Nc3cc(OCCN)c4ccccc4n3)n2)nc2ccccc12; target = c-kit1 G-quadruplex DNA; test = FRET melting; setting = 1 µM, pH 7.4, together with: 60 mM potassium; quantity = ΔTm; result = 9.9 ± 0.9 K
Structure (SMILES) = CO[C@H]1O[C@H](COS(=O)(=O)O)[C@@H](O[C@@H]2O[C@@H](C(=O)O)[C@@H](O[C@H]3O[C@H](COS(=O)(=O)O)[C@@H](O[C@@H]4O[C@H](C(=O)O)[C@@H](O[C@H]5O[C@H](COS(=O)(=O)O)[C@@H](O)[C@H](O)[C@H]5NS(=O)(=O)O)[C@H](O)[C@H]4O)[C@H](OS(=O)(=O)O)[C@H]3NS(=O)(=O)O)[C@H](O)[C@H]2OS(=O)(=O)O)[C@H](O)[C@H]1NS(=O)(=O)O; target = human CCL7; test = nano-ESI MS; setting = 10 µM, pH 6.8, CCL7 12.5 µM; quantity = association constant; result = 130000 ± 10000 M⁻¹
Structure (SMILES) = COc1cc2c3c(n(CCCn4ccnc4)c(=O)c2cc1OC)-c1cc2c(cc1C3=O)OCO2; target = MYC G-quadruplex DNA; test = FRET melting; setting = 2.0 µM, pH 7.0, together with: K+ 10 mM; quantity = ΔTm; result = 8.6 ± 1.3 °C
Structure (SMILES) = CN(C)c1ccc2cc(C(=O)NS(=O)(=O)c3ccccc3-c3ccccc3)oc2c1; target = off-target panel; setting = 10 µM, 77 targets; quantity = inhibition; result = ≤ 50%
Structure (SMILES) = O=c1c2ccccc2[se]n1-c1ccccc1; target = rat AA3; setting = 20 µM; quantity = inhibition; result = inhibited
Structure (SMILES) = COc1cc2c(c(OC)c1OC)-c1ccc(OC)c(=O)cc1[C@@H](NC(C)=O)CC2; target = human FXRα-RXRα; test = protein-protein interaction, antagonist, mammalian two-hybrid; test system = COS-7 cells; setting = concentration not given, PGC1α co-transfected, together with: GW4064; how to read = relative to: GW4064 alone; quantity = relative interaction; result = 29.7%
Structure (SMILES) = O=C(Nc1cc(OCCN2CCCC2)c2ccccc2n1)c1cc(Cl)cc(C(=O)Nc2cc(OCCN3CCCC3)c3ccccc3n2)n1; target = c-kit1 G-quadruplex DNA; test = FRET melting; setting = 1 µM, pH 7.4, together with: 60 mM potassium; quantity = ΔTm; result = 22.2 ± 0.9 K
Structure (SMILES) = N[C@@H](CS)C(=O)O; target = SAR11_1346; test = differential scanning fluorimetry; test system = Candidatus Pelagibacter sp.; setting = in-house screen; quantity = thermal shift; result = 3.13 °C
Structure (SMILES) = COc1cc2c3c(n(CCCN4CCC[C@H]4CO)c(=O)c2cc1OC)-c1nc2c(cc1C3=O)OCO2; target = MYC G-quadruplex DNA; test = FRET melting; setting = 2.0 µM, pH 7.0, together with: K+ 10 mM; quantity = ΔTm; result = 28.4 ± 1.2 °C
Structure (SMILES) = NCCOc1cc(C(=O)Nc2cc(OCCN3CCCC3)c3ccccc3n2)nc(C(=O)Nc2cc(OCCN3CCCC3)c3ccccc3n2)c1; target = c-kit1 G-quadruplex DNA; test = FRET melting; setting = 1 µM, pH 7.4, together with: 60 mM potassium; quantity = ΔTm; result = 31.2 ± 0.9 K
Structure (SMILES) = O=C(NN=Cc1ccc(C[n+]2ccccc2)cc1)c1ccc2ccc3ccc(C(=O)NN=Cc4ccc(C[n+]5ccccc5)cc4)nc3c2n1.[Br-].[Br-]; target = hp2 hairpin duplex DNA; test = FRET melting; setting = 1 µM, together with: ds26 10 µM; quantity = ΔTm; result = 1.1 ± 0.2 °C
Structure (SMILES) = C#Cc1cc(-c2cc(Nc3nc(N[C@@H](C)c4ccc(F)cn4)ncc3Cl)n[nH]2)ccc1C=O; target = TFG-TRKA kinase fusion, human; test = kinase activity, inhibitor; setting = 0.2 µM; quantity = inhibition; result = 103%
Structure (SMILES) = Cc1ncsc1-c1ccc(CNC(=O)[C@@H]2C[C@@H](O)CN2C(=O)[C@@H](NC(=O)C2(C#N)CC2)C(C)(C)C)cc1; target = F4/80+ macrophages; test = immunostaining; test system = Mus musculus, meningeal perivascular region; setting = concentration not given; quantity = macrophage density; result = 11.4 cells/mm² and 8.74 cells/mm²
Structure (SMILES) = NS(=O)(=O)c1ccc(Nc2nc(-c3ccc(F)cc3)c3ccccc3n2)cc1; target = TRIM33 PHD-bromodomain; test = BROMOscan; setting = 1000 nM; how to read = relative to: untreated control, lower = stronger binding; quantity = remaining binding; result = 87%
Structure (SMILES) = O=C(Nc1cc(OCCN2CCCC2)c2ccccc2n1)c1cc(OCc2ccc(F)cc2)cc(C(=O)Nc2cc(OCCN3CCCC3)c3ccccc3n2)n1; target = c-kit1 G-quadruplex DNA; test = FRET melting; setting = 1 µM, pH 7.4, together with: 60 mM potassium; quantity = ΔTm; result = 9.1 ± 0.9 K
Structure (SMILES) = CC(C)C[C@H](N)C(=O)O; target = SAR11_1346; test = differential scanning fluorimetry; test system = Candidatus Pelagibacter sp.; setting = in-house screen; quantity = thermal shift; result = 7.85 °C and 8.35 °C
